Measured values from different studies.
A part holds a random share of what one study measured. Several values in a cell are separate wells, animals, samples, runs or records.
UniProt P53778, sequence (whole entry, looked up): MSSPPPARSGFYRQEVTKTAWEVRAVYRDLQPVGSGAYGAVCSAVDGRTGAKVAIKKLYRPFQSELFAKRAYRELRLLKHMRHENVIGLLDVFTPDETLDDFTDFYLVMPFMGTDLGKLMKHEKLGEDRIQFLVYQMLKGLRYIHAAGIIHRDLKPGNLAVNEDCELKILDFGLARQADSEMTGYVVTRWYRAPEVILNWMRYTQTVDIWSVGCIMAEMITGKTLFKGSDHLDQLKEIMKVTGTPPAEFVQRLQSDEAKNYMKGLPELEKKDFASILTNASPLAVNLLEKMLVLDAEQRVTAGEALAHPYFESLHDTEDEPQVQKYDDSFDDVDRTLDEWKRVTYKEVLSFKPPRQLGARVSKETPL
UniProt P08922, sequence (whole entry, looked up): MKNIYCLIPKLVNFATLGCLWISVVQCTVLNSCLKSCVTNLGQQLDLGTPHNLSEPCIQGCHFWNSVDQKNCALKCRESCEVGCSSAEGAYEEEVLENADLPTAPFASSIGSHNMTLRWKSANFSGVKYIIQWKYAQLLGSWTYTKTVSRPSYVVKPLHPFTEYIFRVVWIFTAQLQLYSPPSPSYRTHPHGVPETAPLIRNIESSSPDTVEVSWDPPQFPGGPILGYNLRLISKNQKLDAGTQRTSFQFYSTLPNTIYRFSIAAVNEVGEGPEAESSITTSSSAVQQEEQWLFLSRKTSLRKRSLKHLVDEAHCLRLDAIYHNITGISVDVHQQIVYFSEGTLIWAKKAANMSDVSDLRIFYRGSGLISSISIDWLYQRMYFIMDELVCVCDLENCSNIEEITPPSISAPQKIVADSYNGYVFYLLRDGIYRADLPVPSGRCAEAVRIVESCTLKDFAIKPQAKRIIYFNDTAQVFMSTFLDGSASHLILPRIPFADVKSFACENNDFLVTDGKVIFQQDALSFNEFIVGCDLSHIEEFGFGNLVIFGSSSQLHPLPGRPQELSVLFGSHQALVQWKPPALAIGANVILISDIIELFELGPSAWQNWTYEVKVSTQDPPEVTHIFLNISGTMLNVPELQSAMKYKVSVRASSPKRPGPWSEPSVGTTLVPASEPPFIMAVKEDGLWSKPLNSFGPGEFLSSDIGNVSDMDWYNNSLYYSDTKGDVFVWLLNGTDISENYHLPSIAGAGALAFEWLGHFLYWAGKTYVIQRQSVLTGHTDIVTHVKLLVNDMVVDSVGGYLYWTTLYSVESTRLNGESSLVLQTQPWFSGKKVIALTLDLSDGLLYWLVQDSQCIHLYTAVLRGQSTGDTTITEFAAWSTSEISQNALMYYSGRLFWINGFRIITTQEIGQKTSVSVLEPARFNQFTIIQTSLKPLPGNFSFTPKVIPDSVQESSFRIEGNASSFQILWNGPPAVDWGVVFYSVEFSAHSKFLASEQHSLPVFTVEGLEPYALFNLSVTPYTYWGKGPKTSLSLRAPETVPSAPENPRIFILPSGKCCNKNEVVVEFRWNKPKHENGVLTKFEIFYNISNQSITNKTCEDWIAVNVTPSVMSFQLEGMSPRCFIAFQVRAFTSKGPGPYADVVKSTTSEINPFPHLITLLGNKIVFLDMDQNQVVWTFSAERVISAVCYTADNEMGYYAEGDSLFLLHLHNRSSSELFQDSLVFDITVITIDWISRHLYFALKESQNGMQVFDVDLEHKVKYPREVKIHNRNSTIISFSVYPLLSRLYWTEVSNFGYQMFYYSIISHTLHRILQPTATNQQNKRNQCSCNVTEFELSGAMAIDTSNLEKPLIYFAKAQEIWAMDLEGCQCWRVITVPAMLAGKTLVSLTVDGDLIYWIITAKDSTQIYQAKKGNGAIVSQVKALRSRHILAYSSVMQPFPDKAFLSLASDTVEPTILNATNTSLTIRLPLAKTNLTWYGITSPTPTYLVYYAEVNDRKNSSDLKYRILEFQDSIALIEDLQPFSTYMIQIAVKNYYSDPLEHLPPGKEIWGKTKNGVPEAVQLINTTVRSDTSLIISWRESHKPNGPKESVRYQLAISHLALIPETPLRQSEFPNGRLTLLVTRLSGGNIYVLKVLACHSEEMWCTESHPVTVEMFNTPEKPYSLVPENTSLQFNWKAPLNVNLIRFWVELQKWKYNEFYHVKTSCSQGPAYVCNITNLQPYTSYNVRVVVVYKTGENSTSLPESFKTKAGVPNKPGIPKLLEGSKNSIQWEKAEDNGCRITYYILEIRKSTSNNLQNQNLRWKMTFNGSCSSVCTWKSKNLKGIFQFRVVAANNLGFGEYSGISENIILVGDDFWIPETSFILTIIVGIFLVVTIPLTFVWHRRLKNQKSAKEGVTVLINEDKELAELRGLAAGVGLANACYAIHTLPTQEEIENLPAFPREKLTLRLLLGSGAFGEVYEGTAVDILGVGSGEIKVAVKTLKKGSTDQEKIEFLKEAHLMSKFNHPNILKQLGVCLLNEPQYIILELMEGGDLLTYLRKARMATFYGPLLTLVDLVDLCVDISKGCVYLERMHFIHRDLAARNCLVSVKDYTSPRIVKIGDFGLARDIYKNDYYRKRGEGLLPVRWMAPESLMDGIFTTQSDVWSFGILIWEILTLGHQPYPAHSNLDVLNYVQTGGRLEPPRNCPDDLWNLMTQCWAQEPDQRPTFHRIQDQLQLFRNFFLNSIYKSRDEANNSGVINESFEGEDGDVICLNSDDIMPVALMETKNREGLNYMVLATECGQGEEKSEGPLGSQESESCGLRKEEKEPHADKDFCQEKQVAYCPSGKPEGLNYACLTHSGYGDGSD
UniProt P07949, sequence (whole entry, looked up): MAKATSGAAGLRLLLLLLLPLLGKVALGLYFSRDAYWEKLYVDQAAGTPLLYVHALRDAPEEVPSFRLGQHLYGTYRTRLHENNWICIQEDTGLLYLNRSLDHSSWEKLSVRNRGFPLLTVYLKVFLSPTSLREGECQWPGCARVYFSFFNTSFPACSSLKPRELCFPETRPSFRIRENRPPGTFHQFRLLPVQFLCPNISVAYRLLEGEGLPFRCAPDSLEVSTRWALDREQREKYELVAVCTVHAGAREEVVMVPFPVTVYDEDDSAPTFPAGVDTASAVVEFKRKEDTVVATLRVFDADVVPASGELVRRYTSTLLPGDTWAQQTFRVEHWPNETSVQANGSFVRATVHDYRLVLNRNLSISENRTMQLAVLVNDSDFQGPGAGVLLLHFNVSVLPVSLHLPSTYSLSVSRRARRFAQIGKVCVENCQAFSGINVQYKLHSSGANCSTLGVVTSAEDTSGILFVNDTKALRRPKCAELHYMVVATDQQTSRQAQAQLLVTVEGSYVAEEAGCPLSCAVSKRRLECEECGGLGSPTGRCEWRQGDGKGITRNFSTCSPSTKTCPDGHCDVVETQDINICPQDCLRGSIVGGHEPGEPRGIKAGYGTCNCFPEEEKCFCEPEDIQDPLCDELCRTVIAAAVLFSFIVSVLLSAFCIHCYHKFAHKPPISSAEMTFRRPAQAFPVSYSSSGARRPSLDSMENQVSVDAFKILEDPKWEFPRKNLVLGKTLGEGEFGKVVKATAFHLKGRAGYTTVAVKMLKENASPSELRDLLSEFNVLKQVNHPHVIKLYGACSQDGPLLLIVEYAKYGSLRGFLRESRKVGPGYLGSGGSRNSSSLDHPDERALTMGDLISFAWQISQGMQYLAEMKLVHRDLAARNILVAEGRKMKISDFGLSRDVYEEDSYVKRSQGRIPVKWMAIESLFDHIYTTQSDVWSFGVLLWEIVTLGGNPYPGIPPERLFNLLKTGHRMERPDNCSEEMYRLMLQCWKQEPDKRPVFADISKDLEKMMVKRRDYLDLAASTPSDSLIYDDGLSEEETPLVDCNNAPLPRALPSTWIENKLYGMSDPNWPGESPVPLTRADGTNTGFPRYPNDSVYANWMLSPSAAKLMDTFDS
UniProt Q9P1W9, sequence (whole entry, looked up): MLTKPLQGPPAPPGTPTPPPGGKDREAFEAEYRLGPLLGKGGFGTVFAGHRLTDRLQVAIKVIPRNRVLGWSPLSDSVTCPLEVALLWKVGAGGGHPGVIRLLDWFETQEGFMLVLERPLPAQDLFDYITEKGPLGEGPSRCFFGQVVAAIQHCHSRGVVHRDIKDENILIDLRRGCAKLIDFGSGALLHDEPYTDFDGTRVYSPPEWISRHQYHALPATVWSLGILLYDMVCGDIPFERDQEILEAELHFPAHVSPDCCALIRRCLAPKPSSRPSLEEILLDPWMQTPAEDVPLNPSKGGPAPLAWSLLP
UniProt Q16539, sequence (whole entry, looked up): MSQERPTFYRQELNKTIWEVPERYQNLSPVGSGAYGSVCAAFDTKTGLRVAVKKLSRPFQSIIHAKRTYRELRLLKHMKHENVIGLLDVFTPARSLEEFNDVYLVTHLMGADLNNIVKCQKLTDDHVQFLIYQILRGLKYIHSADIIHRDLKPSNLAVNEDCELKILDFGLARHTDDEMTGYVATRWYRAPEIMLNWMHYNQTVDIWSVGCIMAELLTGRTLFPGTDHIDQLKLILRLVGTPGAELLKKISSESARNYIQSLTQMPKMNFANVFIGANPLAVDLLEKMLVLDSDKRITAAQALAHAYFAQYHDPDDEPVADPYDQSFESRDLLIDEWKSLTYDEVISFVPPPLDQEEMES
UniProt P49761, sequence (whole entry, looked up): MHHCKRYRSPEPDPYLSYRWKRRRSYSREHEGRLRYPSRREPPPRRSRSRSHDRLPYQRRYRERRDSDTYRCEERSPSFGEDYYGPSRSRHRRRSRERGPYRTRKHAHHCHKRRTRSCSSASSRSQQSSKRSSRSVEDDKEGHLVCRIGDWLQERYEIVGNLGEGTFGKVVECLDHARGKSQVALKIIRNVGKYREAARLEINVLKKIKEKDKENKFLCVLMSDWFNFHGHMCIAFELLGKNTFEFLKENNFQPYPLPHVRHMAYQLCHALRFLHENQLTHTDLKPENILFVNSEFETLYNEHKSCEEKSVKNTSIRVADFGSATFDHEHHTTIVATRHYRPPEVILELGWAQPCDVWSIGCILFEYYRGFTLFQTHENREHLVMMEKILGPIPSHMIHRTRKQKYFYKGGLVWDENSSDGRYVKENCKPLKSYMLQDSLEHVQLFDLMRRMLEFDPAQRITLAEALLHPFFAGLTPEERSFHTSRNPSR

Sample 1
Structure (SMILES): COc1ccc(-c2c(Nc3ccccn3)[nH]c3c(C4=CCCCC4)c(-c4ccccc4)nn3c2=O)cc1
Host: human patients
Medium: plasma
item	dose	time	median concentration
methionine	100 mg once daily	8 h	76800 ng/mL
methionine	150 mg once daily	4 h	92600 ng/mL
methionine	200 mg once daily	0 h	118000 ng/mL
methionine	400 mg once daily	8 h	87100 ng/mL
methionine	150 mg once daily	0 h	105000 ng/mL
S-adenosylmethionine	200 mg once daily	0 h	14.1 ng/mL

Sample 2
Compound: C[C@@H]1CN(c2cc(-c3nn(C)c4ccc(OC5(C)CC5)cc34)ncn2)C[C@H](C)O1
Method: competition with immobilised ligand
Concentration: 1 µM
target	effect on	remaining binding
ROS1 (Homo sapiens, UniProt P08922)	cell-free assay	100%
Tyrosine-protein kinase ABL1, phosphorylated (ABL1, Homo sapiens, UniProt P00519, T315I)	cell-free assay	74%
Tyrosine-protein kinase ABL1, phosphorylated (ABL1, Homo sapiens, UniProt P00519, F317L)	cell-free assay	86%
IRAK4 (Homo sapiens, UniProt Q9NWZ3)	cell-free assay	76%
AKT3 (Homo sapiens, UniProt Q9Y243)	cell-free assay	100%
MTOR (Homo sapiens, UniProt P42345)	cell-free assay	100%
PIM2 (Homo sapiens, UniProt Q9P1W9)	cell-free assay	100%
MAPK13 (Homo sapiens, UniProt O15264)	cell-free assay	100%
PHKG2 (Homo sapiens, UniProt P15735)	cell-free assay	100%
ITK (Homo sapiens, UniProt Q08881)	cell-free assay	96%
MAP3K10 (Homo sapiens, UniProt Q02779)	cell-free assay	100%
Cyclin-dependent kinase 4, with cyclin D1 (CDK4, Homo sapiens, UniProt P11802)	cell-free assay	71%
Ribosomal protein S6 kinase alpha-1, N-terminal kinase domain (RPS6KA1, Homo sapiens, UniProt Q15418)	cell-free assay	100%
MAPK14 (Homo sapiens, UniProt Q16539)	cell-free assay	100%
FYN (Homo sapiens, UniProt P06241)	cell-free assay	98%
RET (Homo sapiens, UniProt P07949)	cell-free assay	96%
CDK8 (Homo sapiens, UniProt P49336)	cell-free assay	100%
Tyrosine-protein kinase ABL1, phosphorylated (ABL1, Homo sapiens, UniProt P00519, E255K)	binding	79%
GRK7 (Homo sapiens, UniProt Q8WTQ7)	cell-free assay	100%
TBK1 (Homo sapiens, UniProt Q9UHD2)	cell-free assay	75%
RIOK2 (Homo sapiens, UniProt Q9BVS4)	cell-free assay	100%
CASK (Homo sapiens, UniProt O14936)	cell-free assay	93%
IRAK1 (Homo sapiens, UniProt P51617)	cell-free assay	67%
GRK3 (Homo sapiens, UniProt P35626)	cell-free assay	69%
GRK4 (Homo sapiens, UniProt P32298)	cell-free assay	96%

Sample 3
Cell line: HaCaT
Concentration: 100 µM
Time: 36 h
Structure (SMILES)	viability
CN(C)CCc1c[nH]c2ccc(Cn3cncn3)cc12	94.6%
Nc1ccn([C@@H]2O[C@H](CO)[C@@H](O)[C@@H]2O)c(=O)n1	37.1%
C=CCN1CCCC1CNC(=O)c1cc2[nH]nnc2cc1OC (centres unmarked)	91.4%
Cc1nnc(NS(=O)(=O)c2ccc(N)cc2)s1	81.8%
CN(C)/N=N/c1[nH]cnc1C(N)=O	73.4%
N[C@H](C(=O)O)[C@H](O)c1ccc(O)c(O)c1	100%
N#C[C@@H]1CCCN1C(=O)CNC12CC3CC(CC(O)(C3)C1)C2	88.9%

Sample 4
Structure (SMILES): CC#CC(=O)N1CCC[C@H]1c1nc(-c2ccc(C(=O)Nc3ccccn3)cc2)c2c(N)nccn12
Effect on: enzyme activity
Mode: inhibitor
Concentration: 1 µM
target	inhibition [%]
STK11 (Homo sapiens, UniProt Q15831)	21
DAPK2 (Homo sapiens, UniProt Q9UIK4)	0
STK24 (Homo sapiens, UniProt Q9Y6E0)	0
MAP4K1 (Homo sapiens, UniProt Q92918)	0
CLK3 (Homo sapiens, UniProt P49761)	6
FLT3 (Homo sapiens, UniProt P36888, R834Q)	0
MAPK12 (Homo sapiens, UniProt P53778)	34

Sample 5
Compound: CC(C)n1cnc(-c2ccc(F)cc2)c1-c1ncc(C(=O)Nc2ccc(N3CCN(C)CC3)cc2)[nH]1
Method: phase 2a trial
Host: idiopathic pulmonary fibrosis patients
dose	setting	patients with anaemia [%]
30 mg once daily	adverse event grade 1	0
60 mg once daily	adverse event grade 5	0
dose not given	adverse event grade 4, all dose arms pooled	0
30 mg once daily	adverse event grade 2	0
60 mg once daily	adverse event grade 4	0
dose not given	adverse event grade 5, all dose arms pooled	0

Sample 6
Structure (SMILES): COc1cc(C(=O)OCCCN2CCCN(CCCOC(=O)c3cc(OC)c(OC)c(OC)c3)CC2)cc(OC)c1OC
Method: electrocardiography
host	route	dose	time	heart rate
mouse	intravenous	30 mg/kg	baseline	540 beats/min and 609 beats/min and 612 beats/min and 558 beats/min and 665 beats/min and 579 beats/min
mouse	intraperitoneal	30 mg/kg	before dosing	607 beats/min and 569 beats/min and 587 beats/min
mouse	intravenous	30 mg/kg	30 min	377 beats/min and 438 beats/min and 418 beats/min and 392 beats/min and 409 beats/min and 274 beats/min
mice	intraperitoneal	10 mg/kg	30 min	600 beats/min and 580 beats/min and 568 beats/min
mouse	intraperitoneal	30 mg/kg	30 min	554 beats/min and 548 beats/min and 558 beats/min

Repeated from above (sample 2):
target	effect on	remaining binding
MAPK13 (Homo sapiens, UniProt O15264)	cell-free assay	100%
PHKG2 (Homo sapiens, UniProt P15735)	cell-free assay	100%
ITK (Homo sapiens, UniProt Q08881)	cell-free assay	96%
MAP3K10 (Homo sapiens, UniProt Q02779)	cell-free assay	100%
Cyclin-dependent kinase 4, with cyclin D1 (CDK4, Homo sapiens, UniProt P11802)	cell-free assay	71%
Ribosomal protein S6 kinase alpha-1, N-terminal kinase domain (RPS6KA1, Homo sapiens, UniProt Q15418)	cell-free assay	100%
MAPK14 (Homo sapiens, UniProt Q16539)	cell-free assay	100%
FYN (Homo sapiens, UniProt P06241)	cell-free assay	98%
RET (Homo sapiens, UniProt P07949)	cell-free assay	96%
